# Measurements of several laboratories.
# Lines come from different studies, so protocols differ.
# Target: Ribosomal protein S6 kinase beta-1 (RPS6KB1, Homo sapiens, UniProt P23443)
Structure (SMILES),test,conditions,how to read,measurement,value
c1ccc2c(Nc3cc(C4CCC4)[nH]n3)nc(Nc3ccc4nc[nH]c4c3)nc2c1,"enzyme activity, inhibitor",0.25 µM,,remaining activity,21%
Cc1cccc(-c2ccc3nc(NC(=O)C4CCOCC4)nn3c2)c1,"enzyme activity, Dundee kinase panel",10 µM,,remaining activity,107%
COc1cc(-n2cc3cc(F)cc(C(N)=O)c3n2)cc(Cl)c1C1CC(O)(CCO)Cc2ccccc21 (stereo not shown),"enzyme activity, inhibitor",10 µM,,inhibition,1.35%
CCn1cc(C(=O)O)c(=O)c2c(N)c(F)c(NC3CCCCC3)cc21,kinase activity,"0.1 µM, together with: ATP at Km",,inhibition,-8.3%
Cc1cnc2nc1Nc1cccc(c1)COC/C=C/COCc1cc(ccc1OCCN1CCOCC1)N2,"binding, competition with immobilised ligand",0.1 µM,,remaining binding,94%
Nc1nc(Nc2ccccc2)sc1C(=O)c1ccccc1,"enzyme activity, inhibitor",10 µM,,remaining activity,53%
NC(=O)C[C@H]1CCc2sc3ncnc(O[C@H]4CC[C@H](N5CCOCC5)CC4)c3c21,"enzyme activity, inhibitor",10 µM,,inhibition,4%
CNC(=O)C1CCN(c2cc(C)c(F)cc2NC(=O)c2ccc(-c3cc(O)ccc3C)c(C)c2)CC1,"binding, competition with immobilised ligand",1 µM,,remaining binding,98%
COc1c(OCCCN2CCOCC2)ccc2c1N=C(NC(=O)c1cnc(N)nc1)N1CCN=C21,"kinase activity, inhibitor",1 µM,baseline: untreated control,remaining activity,97%
Cc1nc2c(F)cc(-c3nc(Nc4ccc(CNC(=O)CCCCCCC(=O)NO)cc4)ncc3F)cc2n1C(C)C,"enzyme activity, inhibitor",1 µM,,inhibition,78%
CN1CC[C@@H](COc2cnc(C#N)cc2-c2ccn3nc(NC(=O)C4CC4)cc3c2)C1,"enzyme activity, inhibitor",1 µM,,inhibition,4%
C=CC(=O)N1Cc2nc(-c3cc(-c4cc(Cl)cnc4Cl)c(F)cc3F)n(-c3ccncn3)c2C1,"cell-free assay, inhibitor",1 µM,,inhibition,7.9%
COc1c(Cl)cccc1Nc1c(-c2ccncc2C#C[C@@]2(C)CCCN2C(=O)/C=C/CN(C)C)[nH]c2c1C(=O)NCC2,"binding, competition with immobilised ligand",3 µM,,remaining binding,90%

# For quick reference, copied from above:
Structure (SMILES),test,conditions,how to read,measurement,value
c1ccc2c(Nc3cc(C4CCC4)[nH]n3)nc(Nc3ccc4nc[nH]c4c3)nc2c1,"enzyme activity, inhibitor",0.25 µM,,remaining activity,21%
